Measured values from different studies.
Every numbered part comes from another study and shows a few of its results, in no order. “And” joins repeats or separate records; there may be more than shown.

Set 1
Compound: COc1cc(C(=O)N2CCC(N3CCN(C)CC3)CC2)ccc1Nc1ncc2c(n1)N(C)c1ccccc1C(=O)N2C
Technique: KINOMEscan
Tested at: 10 µM
Reference: DMSO control
Direction: lower = stronger binding
Quantity: binding
target = NEK6; value = 76%
target = GRK4; value = 86%
target = MAP3K3; value = 97%
target = TTK; value = 28%
target = PKN1; value = 100%
target = YSK1; value = 68%
target = YANK3; value = 100%
target = PRKCH; value = 100%
target = YANK2; value = 100%
target = CAMK2D; value = 28%
target = TXK; value = 91%
target = GSK3B; value = 88%

Set 2
Target: Death-associated protein kinase 3 (DAPK3, Homo sapiens, UniProt O43293)
Sequence of UniProt O43293 (whole entry, looked up): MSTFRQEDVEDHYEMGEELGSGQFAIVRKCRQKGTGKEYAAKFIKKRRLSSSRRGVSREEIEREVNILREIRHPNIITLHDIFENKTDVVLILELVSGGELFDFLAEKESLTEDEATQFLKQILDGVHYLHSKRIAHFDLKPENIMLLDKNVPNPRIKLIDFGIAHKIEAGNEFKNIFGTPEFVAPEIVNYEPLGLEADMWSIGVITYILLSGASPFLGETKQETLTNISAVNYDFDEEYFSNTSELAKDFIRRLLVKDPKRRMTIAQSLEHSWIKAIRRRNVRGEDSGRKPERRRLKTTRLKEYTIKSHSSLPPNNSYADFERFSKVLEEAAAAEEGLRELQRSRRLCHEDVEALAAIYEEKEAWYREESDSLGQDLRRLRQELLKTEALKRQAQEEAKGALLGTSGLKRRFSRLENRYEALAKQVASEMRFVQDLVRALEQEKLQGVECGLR
Observed: enzyme activity
Mode: inhibitor
Tested at: 0.5 µM
Reference: control
Quantity: remaining activity
SMILES = Cc1ccc(NC(=O)c2ccc(CN3CCN(C)CC3)cc2)cc1Nc1nccc(-c2cccnc2)n1; value = 91.5%
SMILES = Cc1nc(Nc2ncc(C(=O)Nc3c(C)cccc3Cl)s2)cc(N2CCN(CCO)CC2)n1; value = 107%
SMILES = COc1ccc(Cl)cc1NC(=O)Nc1cc(C)nc2ccccc12; value = 100%
SMILES = Cn1cnc2cc3c(Nc4cccc(Br)c4)ncnc3cc21; value = 93.7%
SMILES = O=c1cc(N2CCOCC2)oc2c1ccc1ccccc12; value = 94.6%
SMILES = Nc1[nH]nc2nnc(-c3c(-c4ccccc4)nn4ccccc34)cc12; value = 102%
SMILES = Cn1cc(/C=C2\C(=O)Nc3ccc(S(N)(=O)=O)cc32)c2ccccc21; value = 94.1%
SMILES = CC(C)[C@H](CO)Nc1nc(Nc2cccc(Cl)c2)c2ncn(C(C)C)c2n1; value = 104%
SMILES = CC(=O)O/N=C1/C(c2c(O)[nH]c3cc(Br)ccc23)=Nc2ccccc21; value = 82.2%
SMILES = CCN1/C(=C/C(C)=O)Sc2ccc(OC)cc21; value = 98.7%
SMILES = CCC(=O)Nc1ccc2ncnc(Nc3cccc(Br)c3)c2c1; value = 104%
SMILES = CC(C)c1nn(-c2c(Cl)cccc2Cl)c2nc(Cc3ccc(OCCO)cc3)[nH]c(=O)c12; value = 104%
SMILES = O=C(Nc1ccc(Cl)cc1)c1ccccc1NCc1ccncc1; value = 94%
SMILES = C[S+]([O-])c1ccc(-c2nc(-c3ccncc3)c(-c3ccc(F)cc3)[nH]2)cc1 (stereo not shown); value = 95.5%
SMILES = CN(C)CCCn1cc(C2=C(c3c[nH]c4ccccc34)C(=O)NC2=O)c2ccccc21; value = 84.5%
SMILES = COc1cc2ncc(-c3ccccc3)nc2cc1OC; value = 84.7%
SMILES = COc1ccc(-c2cnc3c(-c4ccsc4)cnn3c2)cc1; value = 81.9%
SMILES = CCOc1cc2ncnc(Nc3cccc(Br)c3)c2cc1OCC; value = 103%
SMILES = O=C1NC(=O)/C(=C/c2ccc3nccnc3c2)S1; value = 93.3%
SMILES = COc1cc2ncnc(N3CCN(C(=O)Nc4ccc(Oc5ccccc5)cc4)CC3)c2cc1OC; value = 101%
SMILES = COc1cc2ncnc(Nc3ccc(OCc4ccccc4)cc3)c2cc1OC; value = 99.2%

Set 3
Cell line: sample J colorectal tumour organoid
Tested at: 1 µM
Reference: DMSO
Quantity: viability
Compound = O=C(O)c1ccc(-c2coc3ncc(-c4ccccc4)cc23)cc1Cl; value = 106%
Compound = Cn1cc(-c2ccc3occ(-c4ccccc4-c4ccccc4)c3n2)cn1; value = 134%
Compound = O=C(NCc1ccccc1)c1ccc(S(=O)(=O)NCc2ccccc2)cc1; value = 101%
Compound = O=C(Nc1cccnn1)N1CC(CC=Cc2cncc(Oc3ccc(C(F)(F)F)cn3)n2)C1; value = 109%
Compound = CN(C)C(=O)Cn1cc(-c2ccc(-c3nnc4ccccn34)cc2)cn1; value = 109%
Compound = CC(=O)NCC(=O)N1[C@@H]2CC[C@H]1c1ccc(Nc3ncc(C(F)(F)F)c(NC4CCC4)n3)cc12; value = 21.1% and 26.5%
Compound = CC(C)C(=O)Nc1n[nH]c2cc(-c3cccc(NS(=O)(=O)C4CC4)c3)ccc12; value = 122%
Compound = CN1CCN(Cc2cc(NC(=O)c3ccc4c(c3)CN(c3ccccc3)CC4)cc(C(F)(F)F)c2)CC1; value = 69.9% and 56.9%

Set 4
Cell line: mouse MPNST tumor cells
Technique: high-content immunofluorescence imaging
Measured: nuclear SOX9
Tested at: 10 µM
Time: 12 h
Notes: mean of 2 replicates
Reference: DMSO control
Direction: higher = more nuclear SOX9
Quantity: nuclear SOX9 intensity
SMILES = CC(c1cc2ccccc2s1)N(O)C(N)=O (stereo not shown); value = 99.1 % of DMSO and 100 % of DMSO and 92.9 % of DMSO
SMILES = NN1CCOC1=O; value = 103 % of DMSO
SMILES = OC[C@H](Cc1ccccc1)Nc1nc(Oc2ccc3c(c2)CCC3)nc2c1ncn2Cc1ccc(-c2ccccc2)cc1; value = 106 % of DMSO
SMILES = Nc1nc(=O)n([C@@H]2CS[C@H](CO)O2)cc1F; value = 102 % of DMSO
SMILES = O=C(Nc1ccccc1)N1CCC(Cc2cnc3ccccc3c2)CC1; value = 118 % of DMSO
SMILES = Cc1cccc(-c2[nH]ncc2-c2ccnc3ccccc23)n1; value = 99.3 % of DMSO
SMILES = CN(C/C=C/c1ccccc1)Cc1cccc2ccccc12; value = 128 % of DMSO
SMILES = O=C(NC(NC(=S)Nc1ccc(F)c([N+](=O)[O-])c1)C(Cl)(Cl)Cl)C(c1ccccc1)c1ccccc1 (stereo not shown); value = 84.1 % of DMSO
SMILES = Cn1cnc([N+](=O)[O-])c1Sc1ncnc2[nH]cnc12; value = 91.5 % of DMSO and 106 % of DMSO
SMILES = c1coc(CNc2ncnc3nc[nH]c23)c1; value = 114 % of DMSO
SMILES = CCOC(=O)NNc1nncc2ccccc12; value = 91.4 % of DMSO
SMILES = CC(C(=O)O)c1ccc2c(c1)[nH]c1ccc(Cl)cc12 (stereo not shown); value = 80.4 % of DMSO
SMILES = Nc1nc(Cl)nc2c1ncn2[C@@H]1O[C@H](CO)[C@@H](O)[C@@H]1F; value = 167 % of DMSO
SMILES = C#CCCCCCCCCCCCCCCCC(=O)O; value = 109 % of DMSO

Excerpt of the above (set 1):
target = NEK6; value = 76%
target = GRK4; value = 86%
target = MAP3K3; value = 97%
target = TTK; value = 28%
target = PKN1; value = 100%
target = YSK1; value = 68%
